Results of several laboratories.
Lines come from different studies, so protocols differ. Numbers after ± are the reported error. Converted amounts (≈) assume the structure as drawn.
HTR2C: 5-hydroxytryptamine receptor 2C (HTR2C, Homo sapiens, UniProt P28335)
Sequence of UniProt P28335 (whole entry, looked up): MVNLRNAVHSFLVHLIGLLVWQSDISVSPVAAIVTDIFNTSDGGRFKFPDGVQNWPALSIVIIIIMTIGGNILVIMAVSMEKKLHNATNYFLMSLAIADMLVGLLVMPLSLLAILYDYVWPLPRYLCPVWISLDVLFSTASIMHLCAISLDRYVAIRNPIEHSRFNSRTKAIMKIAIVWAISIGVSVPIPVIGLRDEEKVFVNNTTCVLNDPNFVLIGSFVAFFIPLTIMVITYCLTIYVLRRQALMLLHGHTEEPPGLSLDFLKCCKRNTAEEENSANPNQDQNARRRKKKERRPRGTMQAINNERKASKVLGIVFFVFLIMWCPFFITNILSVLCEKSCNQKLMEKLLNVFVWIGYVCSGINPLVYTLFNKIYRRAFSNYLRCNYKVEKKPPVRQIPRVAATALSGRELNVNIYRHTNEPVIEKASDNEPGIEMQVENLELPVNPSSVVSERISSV
SCTR: Secretin receptor (SCTR, Homo sapiens, UniProt P47872)
Sequence of UniProt P47872 (whole entry, looked up): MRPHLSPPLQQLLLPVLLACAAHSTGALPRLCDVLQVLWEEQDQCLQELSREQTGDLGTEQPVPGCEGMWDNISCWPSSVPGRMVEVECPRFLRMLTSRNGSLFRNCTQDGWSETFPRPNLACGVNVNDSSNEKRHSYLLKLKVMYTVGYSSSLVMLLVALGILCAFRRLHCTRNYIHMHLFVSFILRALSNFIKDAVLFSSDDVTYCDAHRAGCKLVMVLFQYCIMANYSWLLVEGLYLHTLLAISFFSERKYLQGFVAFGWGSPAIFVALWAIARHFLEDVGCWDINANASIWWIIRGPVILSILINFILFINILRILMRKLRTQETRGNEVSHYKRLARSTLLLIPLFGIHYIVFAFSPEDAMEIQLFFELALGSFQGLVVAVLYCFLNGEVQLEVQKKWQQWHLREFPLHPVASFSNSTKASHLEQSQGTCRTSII
FFAR1: Free fatty acid receptor 1 (FFAR1, Homo sapiens, UniProt O14842)
Sequence of UniProt O14842 (whole entry, looked up): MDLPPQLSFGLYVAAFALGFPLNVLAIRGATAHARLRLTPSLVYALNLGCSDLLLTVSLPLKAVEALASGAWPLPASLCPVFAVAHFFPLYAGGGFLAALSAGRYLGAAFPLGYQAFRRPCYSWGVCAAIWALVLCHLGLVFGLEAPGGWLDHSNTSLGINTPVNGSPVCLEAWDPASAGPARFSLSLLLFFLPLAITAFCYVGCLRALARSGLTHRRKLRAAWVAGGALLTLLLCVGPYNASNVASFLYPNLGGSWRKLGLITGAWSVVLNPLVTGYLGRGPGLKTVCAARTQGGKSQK
LPAR2: Lysophosphatidic acid receptor 2 (LPAR2, Homo sapiens, UniProt Q9HBW0)
Sequence of UniProt Q9HBW0 (whole entry, looked up): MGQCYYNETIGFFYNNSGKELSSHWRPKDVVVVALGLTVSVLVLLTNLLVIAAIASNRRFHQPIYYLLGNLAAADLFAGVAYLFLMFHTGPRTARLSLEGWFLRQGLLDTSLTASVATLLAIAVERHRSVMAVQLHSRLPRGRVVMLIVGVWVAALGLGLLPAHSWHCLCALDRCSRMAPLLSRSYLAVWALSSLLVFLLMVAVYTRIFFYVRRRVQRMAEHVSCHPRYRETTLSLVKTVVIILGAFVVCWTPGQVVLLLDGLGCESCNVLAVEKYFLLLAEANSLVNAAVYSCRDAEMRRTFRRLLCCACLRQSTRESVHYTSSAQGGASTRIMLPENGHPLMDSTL
HTR2A: 5-hydroxytryptamine receptor 2A (HTR2A, Homo sapiens, UniProt P28223)
Sequence of UniProt P28223 (whole entry, looked up): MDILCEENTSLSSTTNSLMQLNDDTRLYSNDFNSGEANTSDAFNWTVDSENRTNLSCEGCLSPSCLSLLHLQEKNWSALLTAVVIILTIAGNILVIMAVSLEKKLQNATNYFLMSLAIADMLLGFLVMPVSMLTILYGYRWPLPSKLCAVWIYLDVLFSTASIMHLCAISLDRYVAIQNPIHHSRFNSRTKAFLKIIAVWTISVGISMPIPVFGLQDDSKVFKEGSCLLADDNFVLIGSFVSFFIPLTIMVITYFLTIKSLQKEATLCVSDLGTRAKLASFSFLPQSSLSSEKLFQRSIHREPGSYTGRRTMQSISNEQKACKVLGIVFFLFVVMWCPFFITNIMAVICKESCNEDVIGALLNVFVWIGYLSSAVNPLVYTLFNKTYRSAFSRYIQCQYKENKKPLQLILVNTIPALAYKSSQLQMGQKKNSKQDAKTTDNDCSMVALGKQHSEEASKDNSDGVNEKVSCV
Sequence of UniProt P50052 (whole entry, unmodified, looked up): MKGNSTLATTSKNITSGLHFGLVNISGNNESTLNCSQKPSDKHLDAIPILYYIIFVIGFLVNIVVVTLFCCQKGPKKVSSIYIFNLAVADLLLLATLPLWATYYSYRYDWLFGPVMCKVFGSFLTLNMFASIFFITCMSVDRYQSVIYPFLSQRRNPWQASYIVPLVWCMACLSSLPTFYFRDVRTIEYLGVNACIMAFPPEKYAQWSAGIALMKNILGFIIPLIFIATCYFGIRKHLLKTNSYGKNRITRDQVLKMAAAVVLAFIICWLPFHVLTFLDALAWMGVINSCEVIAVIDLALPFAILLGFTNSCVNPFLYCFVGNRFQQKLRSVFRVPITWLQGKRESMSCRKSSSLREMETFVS

CN1CCC=C(c2cc(F)cc3[nH]ccc23)C1 — Emax (HTR2C; β-arrestin recruitment, agonist): 22.5%
COc1cc(CCC(C)=O)ccc1O — IC50 (mouse mAb 1-D6; antibody binding, indirect competitive ELISA; added: coating antigen 4-OVA): 0.331 µg/mL (≈ 1.71 µM)
O=C(CSc1nc(-c2ccccc2)cc(C(F)(F)F)n1)Nc1cccc(Cl)c1Cl — Emax (SCTR; increase of tracer binding, TR-FRET; HEK293 membranes; added: Fluo-Sec 6 nM): 140 ± 24%
CC=CC(CC(=O)O)c1ccc(OCc2ccc(-c3cc(OC)ccc3F)cc2)cc1 (stereo not shown) — Emax (FFAR1; IP turnover, agonist; COS-7 transient; relative to: GW9508 Emax): 171 ± 9%
CCCCCCCC/C=C\CCCCCCCC(=O)O[C@H]1CCCO[C@@H]1COP(=O)(O)S (stereo partly shown) — Emax (LPAR2; agonist, TGFα shedding): 33%
O=Cc1c(O)ccc2ccccc12 — log2 fold change (HUVEC; RNA sequencing, refers to: E2F2; 75 µM, 24 h; relative to: DMSO): -2.92
COc1ccccc1-c1cc(C(F)(F)F)nc(S(=O)(=O)CCCC(=O)Nc2ccn(Cc3ccc(C)cc3)n2)n1 — Emax (SCTR; cAMP accumulation, positive allosteric modulator; CHO-K1 overexpressing SCTR; added: EC10-EC20 secretin peptide mix; relative to: EC95 peptide mix): 42 ± 12%
CCCCCCCC/C=C\CCCCCCCC(=O)OC[C@@H]1OCCC[C@H]1OP(=O)(O)S (stereo partly shown) — Emax (LPAR2; agonist, TGFα shedding): 11%
Clc1ccc(-c2n[nH]cc2CN2CCN(C34CC(C3)C4)CC2)cc1 — Emax (HTR2A; β-arrestin recruitment, agonist): 79.3%
O=C1NC(=O)C(C2CCOc3cc(Oc4ccc(C(F)(F)F)cc4Cl)ccc32)S1 (stereo not shown) — Emax (FFAR1; IP turnover, agonist; COS-7 transient; relative to: GW9508 Emax): 68 ± 5%
COc1ccc(-c2cc(C(F)(F)F)nc(S(=O)(=O)CCCC(=O)Nc3ccc(F)cc3F)n2)cc1OC — Emax (SCTR; cAMP, agonist): 32%
CCCCCCCC/C=C\CCCCCCCC(=O)O[C@@H]1C=CCO[C@H]1COP(=O)(O)S (stereo partly shown) — Emax (LPAR2; agonist, TGFα shedding): 41%
CCc1nc2ccc(N(Cc3ccccc3)C(=O)c3cccs3)cc2c(=O)n1Cc1ccc(-c2ccccc2-c2nn[nH]n2)cc1 — Ki (AGTR2 (Homo sapiens, UniProt P50052, F308A); ligand displacement, radioligand; cell membranes): 12 nM
OC(c1cccc(C2=CCCNC2)n1)C(F)(F)F (stereo not shown) — Emax (HTR2C; β-arrestin recruitment, agonist): 72.6%
CCCCCCCCCCCC(=O)NCCC(=O)N[C@H](CCCNC(=N)N)C(=O)N[C@H](CCCNC(=N)N)C(=O)N[C@H](CCCNC(=N)N)C(=O)N[C@H](CCCNC(=N)N)C(=O)N[C@H](CCCNC(=N)N)C(=O)N[C@@H](CCCNC(=N)N)C(=O)N[C@@H](CCCNC(=N)N)C(=O)N[C@@H](CCCNC(=N)N)C(=O)N[C@@H](CCCNC(=N)N)C(=O)N[C@@H](CCCCNC(=S)Nc1ccc2c(c1)C(=O)OC21c2ccc(O)cc2Oc2cc(O)ccc21)C(N)=O — retained fluorescence (Jurkat; flow cytometry; 10 µM, 6 h, loaded 10 min at 37 °C, then washed; relative to: 0 h, higher = more retained): ~50%
[64Cu+2].c1ccc(CNCc2ccc(CN3CCCN4CCNCCCN(CC4)CC3)cc2)nc1 — tissue uptake (CXCR4 (human); NOD/SCID mice, U87 xenografts, U87 control tumour; 240 min post-injection): 2.72 ± 0.85 %ID/g
COc1ccc(-c2cc(C(F)(F)F)nc(SCCC(=O)Nc3cc(F)ccc3F)n2)cc1 — Emax (SCTR; increase of tracer binding, TR-FRET; HEK293 membranes; added: Fluo-Sec 6 nM): 128 ± 11%
CCCCC/C=C/C(=O)CCc1ccc(O)c(OC)c1 — IC50 (mouse mAb 1-D6; antibody binding, indirect competitive ELISA; added: coating antigen 6-OVA): 0.0503 µg/mL (≈ 0.182 µM)
CN(CCc1ccc(O)c(Br)c1)CCc1nccs1 — Emax (HTR2A; β-arrestin recruitment, agonist): 35.2%
NS(=O)(=O)Nc1ncnc(OCCOc2ncc(Br)cn2)c1-c1ccc(Br)cc1 — Vmax (metabolite formation; male Sprague-Dawley rat, liver microsomes; 450 mg/kg daily for 4 weeks): 405 ± 36 pmol/min/mg
COc1ccc(-c2cc(C(F)(F)F)nc(SCC(=O)N(C)c3ccccc3)n2)cc1 — Emax (SCTR; increase of tracer binding, TR-FRET; HEK293 membranes; added: Fluo-Sec 6 nM): 172 ± 26%
CCOC(=O)c1cnc(CNCCc2c[nH]c3cccc(C)c23)s1 — Emax (HTR2C; β-arrestin recruitment, agonist): 93%

For quick reference, copied from above:
[64Cu+2].c1ccc(CNCc2ccc(CN3CCCN4CCNCCCN(CC4)CC3)cc2)nc1 — tissue uptake (CXCR4 (human); NOD/SCID mice, U87 xenografts, U87 control tumour; 240 min post-injection): 2.72 ± 0.85 %ID/g
COc1ccc(-c2cc(C(F)(F)F)nc(SCCC(=O)Nc3cc(F)ccc3F)n2)cc1 — Emax (SCTR; increase of tracer binding, TR-FRET; HEK293 membranes; added: Fluo-Sec 6 nM): 128 ± 11%
CCCCC/C=C/C(=O)CCc1ccc(O)c(OC)c1 — IC50 (mouse mAb 1-D6; antibody binding, indirect competitive ELISA; added: coating antigen 6-OVA): 0.0503 µg/mL (≈ 0.182 µM)
